# Published values collected from several papers.
# Protocols differ between the studies behind these lines.
# Cell line: MCF7
SMILES,assay,conditions,IC50
O=C(O)[c-]1cccc1.O=C(Oc1ccc(-n2cccc2)cc1)[c-]1cccc1.[Fe+2],"cell growth or viability, MTT",,57 µM
CC(C)[C@H](NC(=O)[C@H](CCCNC(=N)N)NC(=O)[C@H](CCC(=O)O)NC(=O)[C@H](CCCNC(=N)N)NC(=O)[C@@H](NC(=O)[C@H](CCCNC(=N)N)NC(=O)[C@@H](NC(=O)[C@@H]1CCCN1C(=O)[C@H]1CCCN1C(=O)[C@@H](NC(=O)[C@H](CCCNC(=N)N)NC(=O)[C@@H](NC(=O)[C@H](CCCNC(=N)N)NC(=O)[C@@H](NC(=O)[C@H](CCCNC(=N)N)NC(=O)[C@@H](NC(=O)[C@@H](N)CCCCN)C(C)C)C(C)C)C(C)C)C(C)C)[C@@H](C)O)C(C)C)C(=O)N[C@@H](CCCCN)C(N)=O,,,> 1000 µM
CC[C@H](C)[C@H](NC(=O)[C@H](CCCCN)NC(=O)[C@H](CCCCN)NC(=O)[C@H](C)NC(=O)[C@@H](NC(=O)[C@H](C)NC(=O)[C@H](CC(C)C)NC(=O)[C@H](CC(C)C)NC(=O)[C@H](C)NC(=O)[C@H](CCCCN)NC(=O)[C@H](CC(C)C)NC(=O)[C@H](CC(N)=O)NC(=O)[C@@H](N)CC(C)C)C(C)C)C(=O)N[C@@H](CC(C)C)C(N)=O,"cell growth or viability, MTT",,25.3 µM
COC(=O)C1CN1S(=O)(=O)c1ccc(N)cc1 (centres unmarked),"cell growth or viability, MTT",48 h,137 µM
COc1ccc(C(c2c(C)nn(-c3ccccc3)c2O)c2c(C)nn(-c3ccccc3)c2O)cc1OC,"cell growth or viability, MTT",48 h,8.05 µM
Cc1cc(C)c(N2CCN(c3c(C)cc(C)cc3C)C2=[Se])c(C)c1.[Cl][Au],"cell growth or viability, MTT",72 h,0.7 µM
CC[C@H](C)[C@@H]([C@@H](CC(=O)N1CCC[C@H]1[C@H](OC)[C@@H](C)C(=O)N[C@H](C)[C@@H](O)c1ccccc1)OC)N(C)C(=O)[C@@H](NC(=O)[C@H](C(C)C)N(C)C(=O)OCc1ccc(NC(=O)[C@H](CCCNC(N)=O)NC(=O)[C@@H](NC(=O)CCCc2cn(CC(=O)NCCCC[C@H]3NC(=O)[C@H](CCCCN)NC(=O)[C@H](CCCNC(N)=O)NC(=O)[C@H](Cc4ccc(O)cc4)NC(=O)[C@@H](NC(=O)[C@H](Cc4ccc5ccccc5c4)NC(=O)[C@H](CCCNC(=N)N)NC(=O)[C@@H](N)CCCNC(=N)N)CSSC[C@@H](C(=O)N[C@@H](CCCNC(=N)N)C(N)=O)NC(=O)[C@H](CCCNC(N)=O)NC(=O)[C@H](CCCNC(=N)N)NC(=O)[C@H](Cc4ccc(O)cc4)NC(=O)[C@@H]4CCCN4C3=O)nn2)C(C)C)cc1)C(C)C,"cell growth or viability, CCK-8",48 h,3.98 µM
CC(C)C[C@H](NC(=O)[C@H](C)NC(=O)[C@H](CCCCN)NC(=O)[C@H](C)NC(=O)[C@H](C)NC(=O)[C@@H]1CSCc2ccc(cc2)CSC[C@H](NC(=O)[C@H](CCCCN)NC(=O)[C@H](Cc2ccccc2)NC(=O)CN)C(=O)N[C@@H](CC(C)C)C(=O)N[C@@H](CC(C)C)C(=O)N[C@@H](CCCCN)C(=O)N1)C(=O)N[C@H](C(=O)N[C@@H](CCCCN)C(=O)N[C@H](C(=O)N[C@H](C(=O)N[C@@H](CC(C)C)C(=O)N[C@@H](Cc1ccccc1)C(N)=O)C(C)C)[C@@H](C)O)C(C)C,"cell growth or viability, CCK-8",,10.3 µM
C=CC[P](c1ccccc1)(c1ccccc1)[Pt]([S]c1ccc(C(F)(F)F)cn1)([S]c1ccc(C(F)(F)F)cn1)[P](CC=C)(c1ccccc1)c1ccccc1,"cell growth or viability, MTT",,19.7 µM
C/C1=C\CC[C@@]2(C)O[C@H]2[C@H]2OC(=O)C(C)[C@@H]2CC1 (some centres unmarked),"cell growth or viability, resazurin",,> 500 µM
C[C@H]1O[C@@H](O[C@H]2CC[C@@]3(C)[C@H](CC[C@@H]4[C@@H]3CC[C@]3(C)[C@@H](C5=CC(=O)OC5)[C@@H](O)C[C@]43O)C2)C[C@H](O)[C@@H]1O,"cell growth or viability, MTT",48 h,0.49 µM

# A few entries again:
SMILES,assay,conditions,IC50
CC(C)C[C@H](NC(=O)[C@H](C)NC(=O)[C@H](CCCCN)NC(=O)[C@H](C)NC(=O)[C@H](C)NC(=O)[C@@H]1CSCc2ccc(cc2)CSC[C@H](NC(=O)[C@H](CCCCN)NC(=O)[C@H](Cc2ccccc2)NC(=O)CN)C(=O)N[C@@H](CC(C)C)C(=O)N[C@@H](CC(C)C)C(=O)N[C@@H](CCCCN)C(=O)N1)C(=O)N[C@H](C(=O)N[C@@H](CCCCN)C(=O)N[C@H](C(=O)N[C@H](C(=O)N[C@@H](CC(C)C)C(=O)N[C@@H](Cc1ccccc1)C(N)=O)C(C)C)[C@@H](C)O)C(C)C,"cell growth or viability, CCK-8",,10.3 µM
C=CC[P](c1ccccc1)(c1ccccc1)[Pt]([S]c1ccc(C(F)(F)F)cn1)([S]c1ccc(C(F)(F)F)cn1)[P](CC=C)(c1ccccc1)c1ccccc1,"cell growth or viability, MTT",,19.7 µM
